Results gathered from unrelated publications.
Every numbered part comes from another study and shows a few of its results, in no order. Substitutions count along the parent as printed.

Study 1
Target: Histone acetyltransferase KAT6A, winged helix 1, GST fusion (KAT6A, Homo sapiens, UniProt Q92794, residues 1-85)
Technique: protein binding microarray
Molecule type: double-stranded DNA, one strand shown
Sample: in vitro
Tested at: not given
Setting: 8-mer, flanks averaged, mean of 2 arrays, mostly near background
Baseline: not given
Reading: higher = stronger binding
Target sequence (chain): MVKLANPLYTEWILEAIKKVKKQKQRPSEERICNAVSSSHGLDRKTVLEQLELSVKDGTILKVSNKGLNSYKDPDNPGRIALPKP
Strand | E-score
CGCCGACA | 0.349
AGTCCTAC | 0.0378
CCTATAAC | -0.247
ATATATTA | 0.0473
ACTGCTTA | -0.144
GGAGAGTA | -0.0884
GATCCACA | -0.162
CTCGTCAA | -0.0663
GCACAGCC | 0.228
CATGACGG | 0.248
CCGACGAA | 0.0977
TCGAGGAA | -0.194
CTTGGCGC | 0.276
GCAGCAAA | -0.153
CCCGCGCA | 0.413
CAACCCCG | 0.243
AACGGTAC | 0.188
GAGTATGA | 0.0315
AAGGAGAA | -0.166
ATGTGTGA | -0.301
CGGTCAAA | 0.124
GGAGAAAC | 0.0453
CCACAGTC | -0.294
GTATAACA | -0.08
CCATCCTA | -0.23

Study 2
Target: Interferon regulatory factor 7, full length, phosphomimetic (IRF7, Homo sapiens, UniProt Q92985, residues 1-503, S471D/S472D/S475D/S476D/S477D/S483D/S484D/S487D)
Technique: protein-binding microarray
Molecule type: double-stranded DNA, one strand shown
Sample: in vitro
Tested at: 2200 nM top
Setting: 60-bp whole probe
Together with: salmon DNA 0.4 mg/ml
Baseline: random background probes
Reading: higher = stronger binding
Shared flanks, not repeated: GCCTAGCAC … GTCTTGATTCGCTTGACGCTGCTG
Target sequence (chain): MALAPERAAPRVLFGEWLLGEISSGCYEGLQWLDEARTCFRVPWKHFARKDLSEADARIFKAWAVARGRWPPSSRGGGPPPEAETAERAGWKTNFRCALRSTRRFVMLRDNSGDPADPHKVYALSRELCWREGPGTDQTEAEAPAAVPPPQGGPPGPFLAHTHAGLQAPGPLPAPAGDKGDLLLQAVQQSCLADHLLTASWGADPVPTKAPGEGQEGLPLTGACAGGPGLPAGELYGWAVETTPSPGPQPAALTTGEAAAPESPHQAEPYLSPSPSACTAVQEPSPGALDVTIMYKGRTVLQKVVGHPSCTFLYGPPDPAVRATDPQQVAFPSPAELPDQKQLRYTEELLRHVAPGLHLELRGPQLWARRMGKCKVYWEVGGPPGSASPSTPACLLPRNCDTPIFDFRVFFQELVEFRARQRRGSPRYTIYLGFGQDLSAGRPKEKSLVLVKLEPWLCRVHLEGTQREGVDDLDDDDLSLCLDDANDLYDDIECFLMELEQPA
Strand | fitted relative affinity [z-score]
GACGGTCTCCTACTGCTGGCGTGCTAG | 0.322
GACGATTTAAGTCTCGAGACGTGCTAG | 0.136
TACGGACTGGGGTTTCGGGACGTGCTA | 0.67
CAATTCCTGAAATCTCTTTCCGTGCTA | 1.1
TTTCTTTTCATTACTGCATTGTGCTAG | 8.14
GACGATCTCCGTCTCGAGACGTGCTAG | 0.749
GACGGACTGGGGTTTAGGGACGTGCTA | -0.923
GACGGTTACGGTCTCGGGACGTGCTAG | -0.0313
TACGATTTCAGTTTCGAGACGTGCTAG | 5.64
GACGGTTTCGACACTGGGTACGTGCTA | 2.84
GACGTTCTCCTTATCCTGACGTGCTAG | 2.28
TTAGGTTTTCTACTGCTTTAGTGCTAG | 1.21
TTAGGTATCGGTCTCCGTTAGTGCTAG | 0.801
ACGCATGTGGGTTCCATCATGTGCTAG | 0.497
TTATGTCTCGGTATCGGTTAGTGCTAG | 1.4
TTAGGTCTCGGTATCGGTTCGTGCTAG | 1.49
GCATTTTTCTAACCCATTGAGTGCTAG | 1.41
TTAGATATCAGTCTCGATTTGTGCTAG | 1.29
TTTGGTATCCTTATCCTTTAGTGCTAG | 1.52
TTAGGTATCTTTATCCTTTAGTGCTAG | 0.664
TCACGTATCTTCATTGTACTGTGCTAG | 1.76
TTAGATCTCAGACTGGATAAGTGCTAG | -0.304
TTAGGTATCCTACTGCTTCAGTGCTAG | 0.74
GACGGTTTCGGACTGGGGTCGTGCTAG | 3.86
GACGGTTTCGGGAGTGGGGACGTGCTA | 2.3

Study 3
Target: Centromere-binding protein 1, full length, His-tagged (CBF1, Saccharomyces cerevisiae, UniProt P17106, residues 1-351)
UniProt P17106, sequence (whole entry, looked up): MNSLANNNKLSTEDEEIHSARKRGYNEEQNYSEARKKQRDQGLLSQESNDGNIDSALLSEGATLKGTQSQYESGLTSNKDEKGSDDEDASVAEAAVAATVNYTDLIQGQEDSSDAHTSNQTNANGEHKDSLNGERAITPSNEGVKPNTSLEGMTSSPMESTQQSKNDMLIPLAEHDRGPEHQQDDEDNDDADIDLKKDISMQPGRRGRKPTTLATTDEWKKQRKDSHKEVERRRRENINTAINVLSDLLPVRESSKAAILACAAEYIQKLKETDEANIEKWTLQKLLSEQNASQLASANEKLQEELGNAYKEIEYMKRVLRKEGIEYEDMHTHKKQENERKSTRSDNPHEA
Technique: competition protein-binding microarray
Molecule type: double-stranded DNA, one strand shown
Sample: in vitro
Tested at: 2 µM
Setting: whole 60-bp probe, lowest competitor level
Together with: Pho4 competitor, 0.05 µM
Reading: higher = stronger binding
Shared flanks, not repeated: … GTCTTGATTCGCTTGACGCTGCTG
Strand | fluorescence intensity [a.u.]
ATAGGGCGCTCGGCTCTCGTGCTTTGCGGTGGGAGC | 79.7
TGCGTTAAAACGGCCAATGTGACAGTAGTTCACTCG | 104
ACACTGAATCCGGGCAACGTGTCCAGAACTTGCATT | 85
CTTTCCCGATCTTGTCACTAGACTTTAGCACATTTG | 83.5
CACCGACTGCTTCCGTGCGTGATGGGTAATGCAGTG | 90.5
CTACGCGGGCTATTGCAGGTGAGCAAGACATAGAAT | 78.6
GCAAATCCTCCCACACATGTGACGCTTTGAATCAAG | 770
CATACCCAACCTTTTCACGTGTTATAAGATATTTGT | 1160
TATCTCTGATGTTTGCACGTGCTTTAGCAACTCTTT | 2130
CGTCCTAGTGATTGCGCAGTGGGTGCCATGAGGAAG | 78.2
CTTTCCCGATCTTGTCACTCAACTTTAGCACATTTG | 87.7
GAAGAAAAACCGATGCACGTGACTCGTTAGTCAAAA | 9360
TCAGAATGCAAGAAACACGTGAAAAGGTGGAACTTT | 979
AGCGGCACATAATGCAGCGTGCGGAAGTGTCAGTAG | 72
CTTCTGTAAATTTGATTTGTGGGTGGACGCGCCCCG | 91.6
AAAAGTTTTGAAAAACACGTGCCGATGATTTTTTGT | 2570
GGAGCCAACAGCTCAAACGTGCCAGGGACTGGTTAC | 77.7
CTTGATTCTAAATATCACAGTAGAATAATGGTTTAT | 85.6

Study 4
Target: CCND1, cyclin fold, Cln2 fusion (human)
Technique: yeast growth competition, sequencing
Sample: yeast
Setting: weak parent motif
Baseline: not given
Reading: higher = stronger binding
Parent: E2F1 docking peptide (human); PPVKRRLDLETDH
Change | normalised enrichment score
H13T | 1.1
L7M | -0.118
L7W | -0.0217
P2V | -0.129
K4T | -0.366
P1R | 0.0792
H13Q | 0.38
E10V | -0.0098
L7C | 0.109
H13N | 0.699
R6Y | 0.284
P2T | 0.86
R6E | 0.856
L7A | 0.146
R5A L7A | -0.105
D12P | 0.831
R5C | 0.414
P2K | 0.427
E10Q | 0.536
D8Q | 0.112
R5Y | 0.645
H13V | 0.512
K4W | 0.274
V3I | -0.472
R6A | 0.487

Study 5
Target: Ras GTPase-activating protein-binding protein 1, C-terminal RGG region (G3BP1, Homo sapiens, UniProt Q13283)
UniProt Q13283, sequence (whole entry, looked up): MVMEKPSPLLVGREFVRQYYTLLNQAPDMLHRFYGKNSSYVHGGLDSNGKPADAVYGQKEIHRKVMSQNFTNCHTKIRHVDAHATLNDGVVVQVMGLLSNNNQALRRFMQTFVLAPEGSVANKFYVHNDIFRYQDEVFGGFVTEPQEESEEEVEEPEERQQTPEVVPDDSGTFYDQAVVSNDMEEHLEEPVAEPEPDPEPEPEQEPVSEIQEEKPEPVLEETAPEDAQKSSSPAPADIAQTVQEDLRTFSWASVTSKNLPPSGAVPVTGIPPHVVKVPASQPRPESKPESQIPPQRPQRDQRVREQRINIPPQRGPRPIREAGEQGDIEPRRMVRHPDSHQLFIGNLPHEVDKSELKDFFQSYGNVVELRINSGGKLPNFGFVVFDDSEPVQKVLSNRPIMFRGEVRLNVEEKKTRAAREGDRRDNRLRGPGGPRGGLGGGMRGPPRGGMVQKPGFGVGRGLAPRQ
Technique: RNA Bind-n-Seq
Molecule type: RNA
Sample: in vitro
Tested at: 1 µM
Setting: whole 134-nt RNA, ends assumed
Together with: 150 mM KCl
Baseline: input library
Reading: higher = stronger binding
Shared flanks, not repeated: GGGAGUUCUACAGUCCGACGAUC … UGGAAUUCUCGGGUGUCAAGG
Strand | log2 enrichment
CCCUGUGGGCCUUGCUCAGAGCGGAGAAAGCAUUUGUUUGUACAAGAUCCGCAGACGUGUAAAUGUUCCUGCAAAAACACAGACUCGCGU | -1.53
AAGUCCUGUGCUACACAUCGUAUGUACCGAAUCGGGUUUUUUUGGGAAAGGGAGGGAAAGUAUUAUGUUACGCCGUUCGGAUCUGCACUU | 1
UGGGAGGUGGAUUUUGUUUAUUUUUUUAGCUCAUUUACAGGGGUGGGAAUUUUUUUUUAAUAUGUGUCAUGAAUAAAGUUGUUUUUGAAA | 3.04
UGGGAGGUGGAUUUUGUUUAUUUUUUUAGCUCAUUUCCAGGGGUGGGAAUUUUUUUUUAAUAUGUGUCAUGAAUAUAGUUGUUUUUGAAA | 2.87
CCUCAAGUCCUGUGCUACACAUCGUAUGUACCGAAUCGGAGGAAAAAGGAGGAAAGUAUUAUGUUACGCCGUUCGGAUCUGCACUUCCAG | -0.729
GUCCUGUGCUACACAUCGUAUGUACCGAAUCGGCCCCCCGGCCCCCCGGGCCCCCCGGGAAAGUAUUAUGUUACGCCGUUCGGAUCUGCA | -1.04
CUGUGCUACACAUCGUAUGUACCGAAUCGGGGAAAAAAAGGGAAAAAAAGGGAAAAAAAGGGAAAGUAUUAUGUUACGCCGUUCGGAUCU | -1.33
UGGCCCUGGUGGCAUGCGGGGAGGAAUAGGUGGCCUCAUGGAUCGUGGUGGUCCCGGUGGAAUGUUCAGAGGUGGCCGUGGUGGAGACAG | 2.06
UGGCCCUGGUGGCAUGCGGGGAGGAAGAGGUUGCCUCAUGGAUCGUGGUGGUCCCGGUGGAAUGUUCAGAGGUGGCCGUGGUGGAGACAG | 1.96
GUCCUGUGCUACACAUCGUAUGUACCGAAUCGGCCCCCGGGCCCCCGGGCCCCCGGGGAAAGUAUUAUGUUACGCCGUUCGGAUCUGCAC | -1.51
CAAGUCCUGUGCUACACAUCGUAUGUACCGAAUCGGGGUGGGGAGGGGUUUGGGGAAAGUAUUAUGUUACGCCGUUCGGAUCUGCACUUC | 2.44
GCAGGAAGUAAAAACAAAUGGAAAUGCUUCGGAUAGUGGCAGGGGUGGGGGUUGCUAAGGAAAGGGUAGGAUGGGAGUGGGUAAAGAGUU | 2.08
UCCUGUGCUACACAUCGUAUGUACCGAAUCGGGUUUGGGUUUUUUUGGGUUUUUUUGGGAAAGUAUUAUGUUACGCCGUUCGGAUCUGCA | 0.0179
ACCAUGCAGGUGGGCAUCUUUGGGAAGUGGGGCAAGGGGGGGAUAGGGAGGGGGGUAACACUUUGGGAACAGGUGGUCCCAGGUCGCUUC | 1.61

Some of these lines once more (study 3):
Strand | fluorescence intensity [a.u.]
CACCGACTGCTTCCGTGCGTGATGGGTAATGCAGTG | 90.5
CTACGCGGGCTATTGCAGGTGAGCAAGACATAGAAT | 78.6
GCAAATCCTCCCACACATGTGACGCTTTGAATCAAG | 770
CATACCCAACCTTTTCACGTGTTATAAGATATTTGT | 1160
TATCTCTGATGTTTGCACGTGCTTTAGCAACTCTTT | 2130
CGTCCTAGTGATTGCGCAGTGGGTGCCATGAGGAAG | 78.2
CTTTCCCGATCTTGTCACTCAACTTTAGCACATTTG | 87.7
GAAGAAAAACCGATGCACGTGACTCGTTAGTCAAAA | 9360
TCAGAATGCAAGAAACACGTGAAAAGGTGGAACTTT | 979
AGCGGCACATAATGCAGCGTGCGGAAGTGTCAGTAG | 72
CTTCTGTAAATTTGATTTGTGGGTGGACGCGCCCCG | 91.6
AAAAGTTTTGAAAAACACGTGCCGATGATTTTTTGT | 2570
GGAGCCAACAGCTCAAACGTGCCAGGGACTGGTTAC | 77.7
